Assay results gathered from unrelated publications.
Every numbered part comes from another study and shows a few of its results, in no order. Values joined by “and” are separate records of one study, mostly repeats; a detail may differ.
Sequence of UniProt Q01959 (whole entry, looked up): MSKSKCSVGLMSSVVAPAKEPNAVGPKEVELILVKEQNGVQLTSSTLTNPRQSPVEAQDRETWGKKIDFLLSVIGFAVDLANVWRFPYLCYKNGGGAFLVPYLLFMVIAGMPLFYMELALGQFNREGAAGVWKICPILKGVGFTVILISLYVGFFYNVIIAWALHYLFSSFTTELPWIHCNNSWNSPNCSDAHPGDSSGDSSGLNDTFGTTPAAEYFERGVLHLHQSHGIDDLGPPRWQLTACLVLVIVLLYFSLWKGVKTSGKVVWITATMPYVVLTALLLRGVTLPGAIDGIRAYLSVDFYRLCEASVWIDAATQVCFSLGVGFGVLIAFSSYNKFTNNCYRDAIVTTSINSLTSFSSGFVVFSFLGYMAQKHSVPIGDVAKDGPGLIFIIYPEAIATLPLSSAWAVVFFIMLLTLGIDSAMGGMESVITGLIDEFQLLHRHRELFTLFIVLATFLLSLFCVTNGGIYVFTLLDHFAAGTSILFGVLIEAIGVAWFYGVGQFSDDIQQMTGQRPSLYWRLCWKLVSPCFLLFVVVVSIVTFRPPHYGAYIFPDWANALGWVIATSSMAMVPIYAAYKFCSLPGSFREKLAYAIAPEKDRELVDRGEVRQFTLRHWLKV
Sequence of UniProt P11229 (whole entry, looked up): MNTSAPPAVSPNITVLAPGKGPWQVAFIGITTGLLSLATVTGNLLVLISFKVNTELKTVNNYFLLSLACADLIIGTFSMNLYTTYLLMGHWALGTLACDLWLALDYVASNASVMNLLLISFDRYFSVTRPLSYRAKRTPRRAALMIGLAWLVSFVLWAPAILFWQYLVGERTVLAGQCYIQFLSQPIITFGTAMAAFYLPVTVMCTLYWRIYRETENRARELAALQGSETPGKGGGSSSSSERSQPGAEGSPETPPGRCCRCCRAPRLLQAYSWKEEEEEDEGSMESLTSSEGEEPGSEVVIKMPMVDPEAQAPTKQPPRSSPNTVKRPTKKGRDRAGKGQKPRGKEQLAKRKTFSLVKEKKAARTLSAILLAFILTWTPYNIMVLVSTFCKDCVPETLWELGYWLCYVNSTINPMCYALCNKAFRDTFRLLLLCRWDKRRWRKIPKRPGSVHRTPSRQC
Sequence of UniProt Q9Y5N1 (whole entry, looked up): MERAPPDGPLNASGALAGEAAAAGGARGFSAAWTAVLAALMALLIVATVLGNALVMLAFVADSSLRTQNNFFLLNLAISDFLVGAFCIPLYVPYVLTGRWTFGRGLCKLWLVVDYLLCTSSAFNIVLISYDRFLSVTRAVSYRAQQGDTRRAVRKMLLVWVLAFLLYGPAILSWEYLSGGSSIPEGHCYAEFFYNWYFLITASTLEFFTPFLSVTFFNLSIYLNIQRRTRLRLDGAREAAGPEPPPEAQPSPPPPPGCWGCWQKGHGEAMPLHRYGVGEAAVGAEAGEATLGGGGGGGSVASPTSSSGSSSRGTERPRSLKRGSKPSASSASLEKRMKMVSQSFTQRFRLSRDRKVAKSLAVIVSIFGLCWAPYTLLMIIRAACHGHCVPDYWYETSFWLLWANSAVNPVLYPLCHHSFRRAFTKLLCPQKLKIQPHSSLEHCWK
Sequence of UniProt P35348 (whole entry, looked up): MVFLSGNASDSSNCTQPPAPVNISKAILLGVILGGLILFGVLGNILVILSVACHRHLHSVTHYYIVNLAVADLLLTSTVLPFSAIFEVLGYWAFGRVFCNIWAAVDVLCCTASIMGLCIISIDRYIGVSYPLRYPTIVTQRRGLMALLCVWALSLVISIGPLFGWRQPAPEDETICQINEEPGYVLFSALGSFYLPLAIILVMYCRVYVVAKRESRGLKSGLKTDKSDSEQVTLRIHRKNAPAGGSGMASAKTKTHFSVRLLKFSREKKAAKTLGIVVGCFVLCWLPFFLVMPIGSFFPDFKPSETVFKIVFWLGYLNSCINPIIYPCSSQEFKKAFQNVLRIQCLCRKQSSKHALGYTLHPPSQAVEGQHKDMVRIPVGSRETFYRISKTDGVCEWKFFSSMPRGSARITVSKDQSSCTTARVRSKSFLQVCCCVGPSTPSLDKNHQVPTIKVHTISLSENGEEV
Sequence of UniProt P18089 (whole entry, looked up): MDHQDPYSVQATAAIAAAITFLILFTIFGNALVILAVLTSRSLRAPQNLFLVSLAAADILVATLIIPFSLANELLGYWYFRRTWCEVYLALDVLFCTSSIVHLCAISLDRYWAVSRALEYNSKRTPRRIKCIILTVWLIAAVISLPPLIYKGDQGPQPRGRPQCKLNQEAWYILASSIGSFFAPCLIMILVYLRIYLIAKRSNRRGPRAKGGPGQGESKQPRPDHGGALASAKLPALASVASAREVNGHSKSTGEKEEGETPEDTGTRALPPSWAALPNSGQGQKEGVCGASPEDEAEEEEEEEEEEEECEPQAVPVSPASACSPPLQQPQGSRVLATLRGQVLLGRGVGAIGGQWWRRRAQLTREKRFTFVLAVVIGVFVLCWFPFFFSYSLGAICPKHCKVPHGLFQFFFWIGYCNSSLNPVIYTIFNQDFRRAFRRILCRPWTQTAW
Sequence of UniProt P41145 (whole entry, looked up): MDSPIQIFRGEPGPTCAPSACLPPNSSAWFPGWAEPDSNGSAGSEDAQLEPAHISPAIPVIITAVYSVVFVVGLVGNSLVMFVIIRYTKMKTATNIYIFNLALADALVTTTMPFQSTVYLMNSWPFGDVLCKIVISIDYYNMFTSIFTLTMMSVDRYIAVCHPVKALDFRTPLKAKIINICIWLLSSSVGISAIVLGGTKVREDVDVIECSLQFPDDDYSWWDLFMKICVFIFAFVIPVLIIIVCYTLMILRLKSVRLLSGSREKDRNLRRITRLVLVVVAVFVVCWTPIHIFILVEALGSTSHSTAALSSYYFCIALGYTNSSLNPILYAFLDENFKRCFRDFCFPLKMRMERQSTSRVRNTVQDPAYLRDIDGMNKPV
Sequence of UniProt P20309 (whole entry, looked up): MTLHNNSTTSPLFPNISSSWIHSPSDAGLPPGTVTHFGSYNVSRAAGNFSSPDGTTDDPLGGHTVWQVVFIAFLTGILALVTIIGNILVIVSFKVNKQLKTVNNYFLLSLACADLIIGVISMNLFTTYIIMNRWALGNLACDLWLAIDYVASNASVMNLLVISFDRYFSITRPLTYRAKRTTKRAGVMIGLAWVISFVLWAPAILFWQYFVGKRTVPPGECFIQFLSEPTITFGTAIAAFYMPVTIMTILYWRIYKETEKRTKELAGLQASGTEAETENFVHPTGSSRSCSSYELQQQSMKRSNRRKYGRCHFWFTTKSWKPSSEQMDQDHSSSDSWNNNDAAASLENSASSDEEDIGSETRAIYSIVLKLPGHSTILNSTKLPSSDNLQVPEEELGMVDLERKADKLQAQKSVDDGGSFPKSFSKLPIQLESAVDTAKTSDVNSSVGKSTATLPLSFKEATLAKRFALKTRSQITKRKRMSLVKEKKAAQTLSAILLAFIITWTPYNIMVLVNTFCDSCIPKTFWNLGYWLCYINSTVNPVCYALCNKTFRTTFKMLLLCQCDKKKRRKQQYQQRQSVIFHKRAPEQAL
Sequence of UniProt P35462 (whole entry, looked up): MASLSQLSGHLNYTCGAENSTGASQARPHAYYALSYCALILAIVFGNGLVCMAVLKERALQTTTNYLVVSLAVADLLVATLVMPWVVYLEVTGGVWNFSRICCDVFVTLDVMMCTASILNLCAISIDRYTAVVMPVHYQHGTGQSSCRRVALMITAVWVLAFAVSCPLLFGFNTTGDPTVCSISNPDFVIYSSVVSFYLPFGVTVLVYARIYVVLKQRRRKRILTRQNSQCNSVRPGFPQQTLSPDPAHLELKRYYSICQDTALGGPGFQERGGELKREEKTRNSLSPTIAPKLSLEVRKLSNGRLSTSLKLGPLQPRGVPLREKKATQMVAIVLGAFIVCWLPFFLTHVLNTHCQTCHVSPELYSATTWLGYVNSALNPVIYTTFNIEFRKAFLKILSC
Sequence of UniProt P47898 (whole entry, looked up): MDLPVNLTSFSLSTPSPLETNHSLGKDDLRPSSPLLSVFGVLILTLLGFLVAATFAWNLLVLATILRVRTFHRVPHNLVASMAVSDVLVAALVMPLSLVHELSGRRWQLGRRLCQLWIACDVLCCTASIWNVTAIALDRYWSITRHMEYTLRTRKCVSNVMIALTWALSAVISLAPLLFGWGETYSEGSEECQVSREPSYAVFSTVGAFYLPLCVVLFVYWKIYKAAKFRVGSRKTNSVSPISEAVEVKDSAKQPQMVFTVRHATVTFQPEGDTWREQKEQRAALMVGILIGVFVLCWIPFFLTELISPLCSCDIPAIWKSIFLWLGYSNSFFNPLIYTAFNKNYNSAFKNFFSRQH
Sequence of UniProt P13945 (whole entry, looked up): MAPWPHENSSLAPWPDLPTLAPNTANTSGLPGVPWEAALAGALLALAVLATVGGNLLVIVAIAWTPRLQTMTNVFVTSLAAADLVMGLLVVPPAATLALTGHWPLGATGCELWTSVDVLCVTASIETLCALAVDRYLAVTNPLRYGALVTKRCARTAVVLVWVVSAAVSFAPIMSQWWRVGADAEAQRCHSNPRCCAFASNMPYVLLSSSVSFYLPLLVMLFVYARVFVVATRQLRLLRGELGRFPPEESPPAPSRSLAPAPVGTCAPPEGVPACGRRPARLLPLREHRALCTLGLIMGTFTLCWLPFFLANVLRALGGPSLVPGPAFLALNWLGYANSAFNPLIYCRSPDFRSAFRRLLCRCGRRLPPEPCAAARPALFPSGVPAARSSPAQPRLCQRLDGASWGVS

Set 1
Cell line: HEK-293T-ACE2-TMPRSS2
Technique: cell count
Concentration: 10 µM
Compound	viability
CCCc1nc(Cn2ncc(Br)c(Br)c2=O)no1	95%
Cc1cc(C(=O)N2C[C@@H](COCC3CC3)[C@H](c3ccncc3)C2)c(C)o1	102%
CCOc1ncccc1CNC(=O)C(C)(C)NC(=O)c1cccs1	66%
Cc1cc(SC(C)C(=O)NC2CCS(=O)(=O)C2)nc2ccccc12 (stereo not shown)	70%

Set 2
SMILES: O=C1CCC(N2Cc3c(ccc4c3OCC43CCN(Cc4ccccc4)CC3)C2=O)C(=O)N1 (stereo not shown)
Sample: plasma
species	route	dose	MRT(0-inf)
Sprague Dawley rat, male	oral	3.0 mg/kg	4.26 h
male CD-1 mouse	intravenous	1 mg/kg	1.8 h
male ICR mice	oral	3.0 mg/kg	4.24 h and 3.26 h and 2.01 h

Set 3
SMILES: Cn1cncc1[C@@](O)(COc1ccc(C#N)cc1-c1ccc(OC(F)(F)F)cc1)c1ccc(C#N)cc1
Observed: ligand displacement
Concentration: 10 µM
target	inhibition [%]
Histamine H3 receptor (HRH3, Homo sapiens, UniProt Q9Y5N1)	17.8
D(3) dopamine receptor (DRD3, Homo sapiens, UniProt P35462)	18.1
Sodium-dependent dopamine transporter (SLC6A3, Homo sapiens, UniProt Q01959)	6.63
Muscarinic acetylcholine receptor M3 (CHRM3, Homo sapiens, UniProt P20309)	2.79
Kappa-type opioid receptor (OPRK1, Homo sapiens, UniProt P41145)	1.27
Beta-3 adrenergic receptor (ADRB3, Homo sapiens, UniProt P13945)	-5.85
D(2) dopamine receptor (DRD2, Homo sapiens, UniProt P14416)	7.47
Muscarinic acetylcholine receptor M1 (CHRM1, Homo sapiens, UniProt P11229)	25.8
Alpha-2B adrenergic receptor (ADRA2B, Homo sapiens, UniProt P18089)	20
Alpha-1A adrenergic receptor (ADRA1A, Homo sapiens, UniProt P35348)	4.51
5-hydroxytryptamine receptor 5A (HTR5A, Homo sapiens, UniProt P47898)	0.81

Set 4
Cell line: HEK-293T/ACE2
Concentration: concentration not given
Time: 16 (unit not given)
Reference: vehicle
SMILES	viability
Nc1ccn([C@@H]2O[C@H](CO)[C@@H](O)C2(F)F)c(=O)n1	84.7%
CN(C)C(=O)Oc1cccc([N+](C)(C)C)c1	102%
CCOc1ccccc1OCCN[C@H](C)Cc1ccc(OC)c(S(N)(=O)=O)c1	100%
CCCSc1nc(N[C@@H]2C[C@H]2c2ccc(F)c(F)c2)c2nnn([C@@H]3C[C@H](OCCO)[C@@H](O)[C@H]3O)c2n1	105%
